# Experimental data gathered from unrelated publications.
# Each line is one published result; not all experiments were run side by side. ± marks the error that the study gave.
# Organism: Plasmodium falciparum
Structure (SMILES),test,test system,conditions,EC50 [nM]
Cc1ccc(NCC(=O)Nc2ccccc2)cc1S(=O)(=O)N1CCOCC1,parasite growth,3D7,blood stage,1450
COC[C@H](NC(=O)[C@H](CCc1ccccc1)NC(=O)CN1CCOCC1)C(=O)N[C@H](/C=C/S(C)(=O)=O)CC(C)C,flow cytometry YOYO-1,W2 ring stage,72 h no washout,22 ± 5
O=c1cc[s+]([O-])c2ccc(F)cc12 (racemic),parasite growth,3D7,"72 h, blood stage",107000
CC(=O)N[C@@H](CCCNC(=N)N)C(=O)N[C@H](C(=O)N[C@@H](Cc1c[nH]c2ccccc12)C(=O)N[C@@H](Cc1c[nH]cn1)C(=O)N[C@@H](C)C(=O)C(=O)NCCCCc1ccccc1)C(C)C,,3D7,,330 ± 40
COc1ccc(C2Sc3ccccc3NC3=C2C(=O)c2ccccc23)cc1 (racemic),"growth, [3H]hypoxanthine incorporation",3D7,,2000
"O=c1cc[s+]([O-])c2ccc(Cl)cc12 (single isomer, unassigned; (+))",parasite growth,3D7,"72 h, blood stage",157000
Cc1ccc(NCC(=O)N2CCOCC2)cc1S(=O)(=O)N1CCOCC1,parasite growth,3D7,blood stage,> 50000
COc1cc2[nH]c(C)c(-c3ccc(Oc4ccc(OC(F)(F)F)cc4)cc3)c(=O)c2cc1Cl,"parasite growth, 3H-hypoxanthine incorporation",Dd2,,21
Cc1ccc(CNC(=O)[C@H](CC(C)C)NC(=O)[C@H](CCc2ccccc2)NC(=O)c2cnc(C)cn2)cc1,parasite growth,D10,"72 h, blood stage",127
Cc1ccc(NCC(=O)N2CCCCC2)cc1S(=O)(=O)N1CCOCC1,parasite growth,3D7,blood stage,> 50000
O=C(c1ccc(-c2cc3nccc(-c4ccc5cnccc5c4)c3o2)cc1)N1CCNCC1,parasite growth,3D7,blood stage,58
Cc1ccc(NCC(=O)NC2CCCCC2)cc1S(=O)(=O)N1CCOCC1,parasite growth,3D7,blood stage,2670
Cc1ccc(CNC(=O)[C@@H](NC(=O)[C@H](CCc2ccccc2)NC(=O)[C@H](CCc2ccccc2)N(C)C)C(C)C)cc1,parasite growth,D10,"72 h, blood stage",277
C#CC[C@@H](/C=C/S(C)(=O)=O)NC(=O)[C@H](COC)NC(=O)[C@H](CCc1ccccc1)NC(=O)CN1CCOCC1,flow cytometry YOYO-1,W2 ring stage,72 h no washout,18 ± 5
O=C1C2=C(Nc3ccccc3SC2c2ccsc2)c2ccccc21 (racemic),"growth, [3H]hypoxanthine incorporation",3D7,,44
COC(=O)c1[nH]c(C(=O)OC)c2c1c1c3cc(Cl)ccc3[nH]c1c1[nH]c3ccc(Cl)cc3c12,"parasite growth, SYBR Green",3D7,"72 h, blood stage",790
CNC(=O)c1c(F)cccc1Nc1nc(Nc2cc3c(cc2OC)CCN3C(=O)CN(C)C)nc2[nH]ccc12,parasite growth,W2,blood stage,1580
"O=c1cc[s+]([O-])c2ccccc12 (single isomer, unassigned; (-))",parasite growth,3D7,"72 h, blood stage",91300
COC(=O)c1[nH]c(C(=O)OC)c2c1-c1c[nH]c3ccc(Cl)c(c13)[C@@]21C=Nc2ccc(Cl)cc21,"parasite growth, SYBR Green",3D7,"72 h, blood stage",3900
COc1ccc(S(=O)(=O)NCc2c[nH]nc2-c2cccs2)cc1,"oocyst intensity, standard membrane feeding","NF54-HGL reporter, Anopheles stephensi",,230
Cc1ccc(NC(C)(C)C(=O)Nc2ccc(F)c(Cl)c2)cc1S(=O)(=O)N1CC2CC1CO2 (stereo not drawn),parasite growth,3D7,blood stage,14
COc1cncc(-c2cc(F)cc(CNC(=O)c3cc(N4CC[C@@](C#N)(C5CC5)C4=O)cc(C)n3)c2)c1,"asexual blood-stage growth, SYBR Green I",3D7,48 h,284
COc1ccc(NC(C)(C)C(=O)Nc2ccc(F)c(Cl)c2)cc1S(=O)(=O)N1CCOCC1,parasite growth,3D7,blood stage,14
CC(C)C[C@@H](/C=C/S(C)(=O)=O)NC(=O)[C@H](CC(C)C)NC(=O)[C@H](CCc1ccccc1)NC(=O)CN1CCOCC1,flow cytometry YOYO-1,W2 ring stage,72 h no washout,3 ± 0.6
COc1cc(C(=O)N(C)C)ccc1-c1cc2nccc(-c3ccc4cnccc4c3)c2o1,parasite growth,3D7,blood stage,330
O=C1C2=C(Nc3ccccc3SC2C2CC2)c2ccccc21 (racemic),"growth, [3H]hypoxanthine incorporation",3D7,,48
Cc1c(-c2ccc(Cc3ccc(OC(F)(F)F)cc3)cc2)[nH]c2cccc(F)c2c1=O,"parasite growth, SYBR Green",3D7,blood stage,16
Cc1cc(N2CCC(CO)(C3CC3)C2=O)cc(C(=O)NCc2cc(F)cc(-c3cnn(C)c3)c2)n1 (stereo not drawn),"asexual blood-stage growth, SYBR Green I",3D7,48 h,356
Cc1ccc(CNC(=O)[C@@H]2Cc3cccc(c3)Oc3cccc(c3)C[C@H](N)C(=O)N[C@@H](CCc3ccccc3)C(=O)N2)cc1,,,"1 h pulse, synchronized trophozoite stage",4380
CCN(CC)S(=O)(=O)c1cc(NCC(=O)Nc2ccc(F)c(Cl)c2)ccc1C,parasite growth,3D7,blood stage,270

# Excerpt of the above:
Structure (SMILES),test,test system,conditions,EC50 [nM]
Cc1ccc(CNC(=O)[C@@H](NC(=O)[C@H](CCc2ccccc2)NC(=O)[C@H](CCc2ccccc2)N(C)C)C(C)C)cc1,parasite growth,D10,"72 h, blood stage",277
C#CC[C@@H](/C=C/S(C)(=O)=O)NC(=O)[C@H](COC)NC(=O)[C@H](CCc1ccccc1)NC(=O)CN1CCOCC1,flow cytometry YOYO-1,W2 ring stage,72 h no washout,18 ± 5
